Measurements collected from several papers.
Lines come from different studies, so protocols differ.

SMILES | assay | test system | setting | quantity | result
COC(=O)c1ccccc1-c1c2ccc(=O)cc-2oc2c1ccc1cccc(N(C)C)c12 |  | aqueous HCl 10% DMSO | 10 to 15 µM, pH 1.9 | absorption maximum | 480 nm
Cn1cncc1-c1c(F)cncc1NC(=O)c1c(N)nn2cc(F)cnc12 | population PK model | patients with solid tumours, plasma | oral | absorption lag time | 0.369 h
COc1ccc(/N=N/c2cccc(CN3CCC(C(=O)NC(C)(C)C)CC3)c2)cc1 |  | DMSO | 25 µM, 25 °C | absorption maximum, trans isomer | 356 nm
Cc1ccc2c(c1)sc(-c1ccc(N(C)C)cc1)[n+]2C |  | PBS | free dye | absorption maximum wavelength | 413 nm
CC1(C)CCC(CN2CCN(c3ccc(C(=O)NS(=O)(=O)c4ccc(NCC5CCOCC5)c([N+](=O)[O-])c4)c(Oc4cnc5[nH]ccc5c4)c3)CC2)=C(c2ccc(Cl)cc2)C1 | final population PK model | AML patients, plasma | oral | absorption rate constant (Ka) | 3.66 day⁻¹
COc1cc(-c2[o+]c3cc(O)cc(O)c3cc2O[C@@H]2O[C@H](CO)[C@@H](O)[C@H](O)[C@H]2O)ccc1O |  | buffer without protein | 50 µM, pH 7 | absorption maximum | 548 nm
CC(C)(C)NC(=O)C1CCN(Cc2cccc(/N=N/c3ccccc3)c2)CC1 |  | DMSO | 25 µM, 25 °C | absorption maximum, trans isomer | 327 nm
COC(=O)c1ccccc1C1=c2cc3c4c(c2Oc2c1ccc1cccc(O)c21)CCC[N+]=4CCC3.[Cl-] |  | 12.5 mM aqueous NaOH | pH 12.1, 10% DMSO | absorption maximum | 643 nm
CC[C@@H]1CN(C(=O)NCC(F)(F)F)C[C@@H]1c1cnc2cnc3[nH]ccc3n12 | population PK model | healthy, RA and CD subjects, plasma | oral, immediate-release formulation | absorption rate constant | 3.6 h⁻¹
CC(C)(C)NC(=O)C1CCN(Cc2ccc(/N=N/c3ccccc3)cc2)CC1 |  | DMSO | 25 µM, 25 °C | absorption maximum, trans isomer | 332 nm
OC[C@H]1O[C@@H](Oc2cc3c(O)cc(O)cc3[o+]c2-c2ccc(O)c(O)c2)[C@H](O)[C@@H](O)[C@@H]1O |  | buffer without protein | 50 µM, pH 7 | absorption maximum | 550 nm
CC(C)(C)NC(=O)C1CCN(Cc2cccc(/N=N/c3ccc(C(F)(F)F)cc3)c2)CC1 |  | DMSO | 25 µM, 25 °C | absorption maximum, cis isomer | 436 nm
CNC(=O)c1c(C)oc2cc(Oc3ncnc4cc(OC)c(OC)cc34)ccc12 | final population PK model | subject weighing 70 kg | oral | absorption rate constant ka | 2.52 per h

For quick reference, copied from above:
SMILES | assay | test system | setting | quantity | result
CC(C)(C)NC(=O)C1CCN(Cc2cccc(/N=N/c3ccccc3)c2)CC1 |  | DMSO | 25 µM, 25 °C | absorption maximum, trans isomer | 327 nm
